Measured values of several laboratories.
Protocols differ between the studies behind these lines.
B1: tuf (Methanothermobacter thermautotrophicus, UniProt O27132); sequence looked up; chain MAKEKEHMNLAFIGHVDHGKSTLVGHLLLQAGAIAEQQLAEGEDKFRFVMDRLSEERERGVTIDLAHAKFETDKYEFTIVDCPGHRDFVKNMITGASQADAAVLVVAVDDGVMPQTKEHVFLSRTLGINQLIVAINKMDLVNYDEEKFNALKDEVAALIKTVGYKPSDVEFIPLSAFEGDNITSKSENTPWYKGKTLVEALDDLEAPEKPVDLPLRIPIQDVYSITGVGTVPVGRVETGVLKKGENVIFEPAGVSGEVKSIEMHHEMIEQAEPGDNIGFNVRGVGKNDIRRGDVAGHLDNPPKVAKEFTAQIVVLQHPGVITVGYTPVFHCHTAQVACTFLELVQKMNPATGQVEEENPDFLKTGNAAVVKVKPTKPLVIEKIKDIPHMGRFAIRDMGQTVAAGMCIDLVPAK
B2: UGT1A9 (Homo sapiens, UniProt O60656); chain GKLLVVPMDGSHWFTMRSVVEKLILRGHEVVVVMPEVSWQLGRSLNCTVKTYSTSYTLEDLDREFKAFAHAQWKAQVRSIYSLLMGSYNDIFDLFFSNCRSLFKDKKLVEYLKESSFDAVFLDPFDNCGLIVAKYFSLPSVVFARGILCHYLEEGAQCPAPLSYVPRILLGFSDAMTFKERVRNHIMHLEEHLLCHRFFKNALEIASEILQTPVTEYDLYSHTSIWLLRTDFVLDYPKPVMPNMIFIGGINCHQGKPLPMEFEAYINASGEHGIVVFSLGSMVSEIPEKKAMAIADALGKIPQTVLWRYTGTRPSNLANNTILVKWLPQNDLLGHPMTRAFITHAGSHGVYESICNGVPMVMMPLFGDQMDNAKRMETKGAGVTLNVLEMTSEDLENALKAVINDKSYKENIMRLSSLHKDRPVEPLDLAVFWVEFVMRHKGAPHLRPAAHDLTWYQYHSLDVIGFLLAVVLTVAFITFKCCAYGYRKCLGKKGRVKKAHKSKTH
B3: CTNNB1 T393D (Homo sapiens, UniProt P35222); sequence looked up; chain MATQADLMELDMAMEPDRKAAVSHWQQQSYLDSGIHSGATTTAPSLSGKGNPEEEDVDTSQVLYEWEQGFSQSFTQEQVADIDGQYAMTRAQRVRAAMFPETLDEGMQIPSTQFDAAHPTNVQRLAEPSQMLKHAVVNLINYQDDAELATRAIPELTKLLNDEDQVVVNKAAVMVHQLSKKEASRHAIMRSPQMVSAIVRTMQNTNDVETARCTAGTLHNLSHHREGLLAIFKSGGIPALVKMLGSPVDSVLFYAITTLHNLLLHQEGAKMAVRLAGGLQKMVALLNKTNVKFLAITTDCLQILAYGNQESKLIILASGGPQALVNIMRTYTYEKLLWTTSRVLKVLSVCSSNKPAIVEAGGMQALGLHLTDPSQRLVQNCLWTLRNLSDAADKQEGMEGLLGTLVQLLGSDDINVVTCAAGILSNLTCNNYKNKMMVCQVGGIEALVRTVLRAGDREDITEPAICALRHLTSRHQEAEMAQNAVRLHYGLPVVVKLLHPPSHWPLIKATVGLIRNLALCPANHAPLREQGAIPRLVQLLVRAHQDTQRRTSMGGTQQQFVEGVRMEEIVEGCTGALHILARDVHNRIVIRGLNTIPLFVQLLYSPIENIQRVAAGVLCELAQDKEAAEAIEAEGATAPLTELLHSRNEGVATYAAAVLFRMSEDKPQDYKKRLSVELTSSLFRTEPMAWNETADLGLDIGAQGEPLGYRQDDPSYRSFHSGGYGQDALGMDPMMEHEMGGHHPGADYPVDGLPDLGHAQDLMDGLPPGDSNQLAWFDTDL
B4: EPB41 210-507 (Homo sapiens, UniProt P11171); sequence looked up; chain MHCKVSLLDDTVYECVVEKHAKGQDLLKRVCEHLNLLEEDYFGLAIWDNATSKTWLDSAKEIKKQVRGVPWNFTFNVKFYPPDPAQLTEDITRYYLCLQLRQDIVAGRLPCSFATLALLGSYTIQSELGDYDPELHGVDYVSDFKLAPNQTKELEEKVMELHKSYRSMTPAQADLEFLENAKKLSMYGVDLHKAKDLEGVDIILGVCSSGLLVYKDKLRINRFPWPKVLKISYKRSSFFIKIRPGEQEQYESTIGFKLPSYRAAKKLWKVCVEHHTFFRLTSTDTIPKSKFLALGSKF
B5: actS 27-251 (Escherichia coli, UniProt Q46798); chain GSHMSGSKSSDTGTYSGSVYTVKRGDTLYRISRTTGTSVKELARLNGISPPYTIEVGQKLKLGGAKSSSITRKSTAKSTTKTASVTPSSAVPKSSWPPVGQRCWLWPTTGKVIMPYSTADGGNKGIDISAPRGTPIYAAGAGKVVYVGNQLRGYGNLIMIKHSEDYITAYAHNDTMLVNNGQSVKAGQKIATMGSTDAASVRLHFQIRYRATAIDPLRYLPPQGSKPKC
B6: GCN4/KAR3/VIK1 353-729/341-647 C391L/C469A/C517A/C566V/C655V/E382C/C377V/C436A/C536A/C596A/C640A/K372C (Saccharomyces cerevisiae); M4M 10-Å cross-link; chain 1 SVKELEDKVEELLSKNYHLENEVARLKKLVKDTELGMKELNEILIKEETVRRTLHNELQCLRGNIRVYLRIRPALKNLENSDTSLINVNEFDDNSGVQSMEVTKIQNTAQVHEFKFDKIFDQQDTNVDVFKEVGQLVQSSLDGYNVAIFAYGQTGSGKTFTMLNPGDGIIPSTISHIFNWINKLKTKGWDYKVNAEFIEIYNENIVDLLRSDNNNKEDTSIGLKHEIRHDQETKTTTITNVTSVKLESEEMVEIILKKANKLRSTASTASNEHSSRSHSIFIIHLSGSNAKTGAHSYGTLNLVDLAGSERINVSQVVGDRLRETQNINKSLSVLGDVIHALGQPDSTKRHIPFRNSKLTYLLQYSLTGDSKTLMFVNISPSSSHINETLNSLRFASKVNSTRLVSRK; chain 2 SVKELEDKVEELLSKNYHLENEVARLKKLVSKQEKFYNDTYNTVEKELLRSRRLENSIIEQCGTMRVYAYVMEQNLPENLLFDYENGVITQGLSEHVYKFNRVIPHLKVSEDKFFTQEYSVYHDMALNQKKNFNLISLSTTPHGSLRESLIKFLAEKDTIYQKQYVITLQFVFLSDDEFSQDMLLDYSHNDKDSIKLKFEKHSISLDSKLVIIENGLEDLPLNFSADEHPNLPHSGMGIIKVQFFPRDSKSDGNNDPVPVDFYFIELNNLKSIEQFDKSIFKKESAETPIALVLKKLISDTKSFFLLNLNDSKNVNKLLTISEEVQTQLAKRKKKLT
Chain of UniProt P70618 (whole entry, unmodified, looked up): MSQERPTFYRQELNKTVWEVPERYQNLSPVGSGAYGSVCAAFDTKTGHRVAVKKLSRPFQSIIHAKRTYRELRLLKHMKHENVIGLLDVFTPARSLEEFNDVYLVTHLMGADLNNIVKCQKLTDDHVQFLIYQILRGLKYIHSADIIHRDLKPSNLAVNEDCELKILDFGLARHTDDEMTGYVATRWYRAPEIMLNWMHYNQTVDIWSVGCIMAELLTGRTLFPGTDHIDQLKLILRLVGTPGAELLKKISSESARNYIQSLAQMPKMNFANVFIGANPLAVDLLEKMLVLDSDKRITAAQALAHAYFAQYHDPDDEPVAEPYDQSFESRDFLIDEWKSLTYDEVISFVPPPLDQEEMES
Chain of UniProt P12259 (whole entry, unmodified, looked up): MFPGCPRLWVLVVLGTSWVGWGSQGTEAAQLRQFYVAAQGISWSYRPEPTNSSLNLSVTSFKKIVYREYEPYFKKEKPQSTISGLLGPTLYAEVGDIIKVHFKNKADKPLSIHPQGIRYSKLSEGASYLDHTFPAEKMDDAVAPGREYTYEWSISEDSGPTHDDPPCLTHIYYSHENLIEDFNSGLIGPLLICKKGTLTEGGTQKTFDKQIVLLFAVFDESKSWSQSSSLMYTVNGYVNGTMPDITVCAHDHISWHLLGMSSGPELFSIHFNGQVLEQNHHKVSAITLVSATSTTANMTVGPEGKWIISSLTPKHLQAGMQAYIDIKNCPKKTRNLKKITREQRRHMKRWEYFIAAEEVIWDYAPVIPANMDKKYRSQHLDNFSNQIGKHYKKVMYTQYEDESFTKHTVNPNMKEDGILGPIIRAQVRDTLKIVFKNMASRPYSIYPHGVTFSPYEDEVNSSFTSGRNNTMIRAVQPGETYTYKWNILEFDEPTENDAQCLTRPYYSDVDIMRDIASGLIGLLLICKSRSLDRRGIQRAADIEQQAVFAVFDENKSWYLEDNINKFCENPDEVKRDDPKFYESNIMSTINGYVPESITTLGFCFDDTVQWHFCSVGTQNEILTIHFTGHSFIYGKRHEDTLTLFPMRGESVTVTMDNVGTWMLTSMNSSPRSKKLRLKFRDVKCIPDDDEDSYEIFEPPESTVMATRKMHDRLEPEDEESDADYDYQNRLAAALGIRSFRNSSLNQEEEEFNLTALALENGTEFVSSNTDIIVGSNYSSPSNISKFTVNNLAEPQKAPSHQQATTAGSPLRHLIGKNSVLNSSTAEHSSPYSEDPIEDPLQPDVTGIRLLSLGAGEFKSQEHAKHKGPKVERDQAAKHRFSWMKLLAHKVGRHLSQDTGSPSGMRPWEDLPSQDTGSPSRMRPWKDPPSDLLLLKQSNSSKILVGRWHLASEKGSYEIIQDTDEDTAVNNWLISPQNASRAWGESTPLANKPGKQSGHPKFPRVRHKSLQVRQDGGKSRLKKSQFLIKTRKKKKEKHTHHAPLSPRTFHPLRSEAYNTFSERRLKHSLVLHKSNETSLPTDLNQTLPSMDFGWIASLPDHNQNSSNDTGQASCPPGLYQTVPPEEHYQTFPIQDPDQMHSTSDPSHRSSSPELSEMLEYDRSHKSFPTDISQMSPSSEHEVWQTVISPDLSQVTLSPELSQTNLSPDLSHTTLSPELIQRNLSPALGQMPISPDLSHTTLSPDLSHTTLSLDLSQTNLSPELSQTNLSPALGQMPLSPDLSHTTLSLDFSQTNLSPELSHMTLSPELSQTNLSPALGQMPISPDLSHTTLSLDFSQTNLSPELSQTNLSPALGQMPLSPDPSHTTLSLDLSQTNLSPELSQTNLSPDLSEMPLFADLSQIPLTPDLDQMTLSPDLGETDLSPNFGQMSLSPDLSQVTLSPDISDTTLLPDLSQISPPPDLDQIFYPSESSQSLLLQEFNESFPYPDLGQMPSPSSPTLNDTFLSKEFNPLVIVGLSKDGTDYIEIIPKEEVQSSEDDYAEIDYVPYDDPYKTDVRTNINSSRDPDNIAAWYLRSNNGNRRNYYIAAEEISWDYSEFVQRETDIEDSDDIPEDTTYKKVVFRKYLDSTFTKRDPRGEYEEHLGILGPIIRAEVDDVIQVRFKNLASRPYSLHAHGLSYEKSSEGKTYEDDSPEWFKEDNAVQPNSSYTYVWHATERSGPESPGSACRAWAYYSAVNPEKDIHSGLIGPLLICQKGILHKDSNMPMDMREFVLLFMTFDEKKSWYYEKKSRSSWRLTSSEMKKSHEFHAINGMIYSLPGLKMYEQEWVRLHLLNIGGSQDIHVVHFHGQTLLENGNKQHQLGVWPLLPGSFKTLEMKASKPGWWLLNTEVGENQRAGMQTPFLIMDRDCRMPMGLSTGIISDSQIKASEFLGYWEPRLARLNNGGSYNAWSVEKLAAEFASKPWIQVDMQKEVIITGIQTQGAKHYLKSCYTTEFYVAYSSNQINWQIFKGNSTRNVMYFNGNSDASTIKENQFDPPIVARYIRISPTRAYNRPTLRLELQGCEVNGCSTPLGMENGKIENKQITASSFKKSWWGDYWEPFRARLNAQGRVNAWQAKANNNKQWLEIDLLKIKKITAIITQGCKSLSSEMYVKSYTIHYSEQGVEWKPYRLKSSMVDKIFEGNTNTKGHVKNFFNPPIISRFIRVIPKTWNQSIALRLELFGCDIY
Chain of UniProt Q5SKM8 (whole entry, looked up): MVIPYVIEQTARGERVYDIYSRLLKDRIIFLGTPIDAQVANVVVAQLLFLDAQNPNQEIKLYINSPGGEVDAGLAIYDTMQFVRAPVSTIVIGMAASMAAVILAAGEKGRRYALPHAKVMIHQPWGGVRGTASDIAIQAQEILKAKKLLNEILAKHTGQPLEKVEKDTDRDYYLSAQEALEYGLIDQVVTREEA
Chain of UniProt O27552 (whole entry, looked up): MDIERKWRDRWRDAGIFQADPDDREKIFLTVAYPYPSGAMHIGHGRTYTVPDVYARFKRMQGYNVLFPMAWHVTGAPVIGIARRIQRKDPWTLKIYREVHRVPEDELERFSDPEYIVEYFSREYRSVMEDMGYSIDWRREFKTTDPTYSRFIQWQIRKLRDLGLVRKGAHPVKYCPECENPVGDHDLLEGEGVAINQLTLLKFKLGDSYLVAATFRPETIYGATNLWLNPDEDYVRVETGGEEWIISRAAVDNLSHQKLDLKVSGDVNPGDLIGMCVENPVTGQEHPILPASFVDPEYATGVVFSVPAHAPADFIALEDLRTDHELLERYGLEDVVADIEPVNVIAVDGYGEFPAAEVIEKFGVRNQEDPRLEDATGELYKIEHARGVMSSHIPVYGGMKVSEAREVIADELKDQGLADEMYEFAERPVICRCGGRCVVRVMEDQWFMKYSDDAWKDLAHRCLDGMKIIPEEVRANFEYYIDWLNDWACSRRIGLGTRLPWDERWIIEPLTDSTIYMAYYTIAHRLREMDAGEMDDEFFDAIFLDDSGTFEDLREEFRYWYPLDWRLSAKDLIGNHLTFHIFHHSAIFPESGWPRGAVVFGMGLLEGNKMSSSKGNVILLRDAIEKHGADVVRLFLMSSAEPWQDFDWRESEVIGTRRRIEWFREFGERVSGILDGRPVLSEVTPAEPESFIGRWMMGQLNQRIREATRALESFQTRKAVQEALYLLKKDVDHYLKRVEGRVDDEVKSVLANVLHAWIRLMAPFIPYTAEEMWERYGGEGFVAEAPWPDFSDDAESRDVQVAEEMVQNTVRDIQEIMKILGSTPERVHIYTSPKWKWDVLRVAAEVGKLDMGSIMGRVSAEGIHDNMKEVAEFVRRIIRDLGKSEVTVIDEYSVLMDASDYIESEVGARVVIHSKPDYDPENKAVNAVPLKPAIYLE
Chain of UniProt Q9UNN8 (whole entry, looked up): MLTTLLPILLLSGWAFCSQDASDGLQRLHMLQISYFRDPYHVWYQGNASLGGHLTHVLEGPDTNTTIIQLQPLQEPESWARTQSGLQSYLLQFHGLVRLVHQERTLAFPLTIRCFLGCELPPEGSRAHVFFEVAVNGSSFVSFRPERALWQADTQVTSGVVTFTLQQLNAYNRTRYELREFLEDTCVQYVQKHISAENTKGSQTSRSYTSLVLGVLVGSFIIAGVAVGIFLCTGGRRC
Chain of UniProt P26365 (whole entry, looked up): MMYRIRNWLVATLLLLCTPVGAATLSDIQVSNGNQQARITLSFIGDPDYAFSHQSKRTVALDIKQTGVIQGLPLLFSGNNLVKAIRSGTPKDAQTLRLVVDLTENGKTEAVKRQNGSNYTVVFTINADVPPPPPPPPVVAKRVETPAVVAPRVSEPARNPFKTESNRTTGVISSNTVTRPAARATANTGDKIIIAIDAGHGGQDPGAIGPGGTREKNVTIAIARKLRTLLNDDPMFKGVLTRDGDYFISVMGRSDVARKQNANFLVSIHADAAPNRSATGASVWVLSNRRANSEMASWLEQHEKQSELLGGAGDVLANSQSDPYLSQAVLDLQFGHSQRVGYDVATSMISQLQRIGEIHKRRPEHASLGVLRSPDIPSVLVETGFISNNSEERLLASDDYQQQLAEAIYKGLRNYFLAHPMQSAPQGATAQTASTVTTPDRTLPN

For `B1 (tuf)`, the kcat increase was 8 fold (leuS, Alexa Fluor 488 label (Methanothermobacter thermautotrophicus, UniProt O27552); Leu-tRNA synthesis; baseline: free enzyme, higher = faster synthesis).
For `B2 (UGT1A9)`, the Vmax was 0.000552 µmol/min/mg (O=C(/C=C/c1ccccc1O)c1ccccc1; steady-state kinetics; pH 7.4, 37 °C).
With `YAERPSRDHLYLPLEP (NFATC3 D-site peptide (Homo sapiens))` the IC50 was > 100000 nM (Mapk14 D315S/D316E/E317A, pT180, pY182 (Rattus norvegicus, UniProt P70618); kinase activity, inhibitor, competitive kinase inhibition assay; peptide; with: ATP 1 mM).
`B3 (CTNNB1 T393D)`: “phosphorylated to total β-catenin ratio” 0.45 ratio (Axin (Xenopus, UniProt Q9YGY0); immunoblot; C57MG; higher = more phosphorylation).
For `F10 activated, mature, active site blocked (Homo sapiens)`, the EC50 was 30 nM (PROCR (Homo sapiens, UniProt Q9UNN8); cell surface binding, cell surface binding ELISA; EA.hy926; 3 h, 4 °C).
With `B4 (EPB41 210-507)` the koff was 0.0047 s⁻¹ (MPP1 (Homo sapiens, UniProt Q00013); SPR; 50-400 nM, pH 7.4, 25 °C).
`clpX fragment (Thermus thermophilus)` — result for “half-maximal activation ratio”: 6.5 ClpX6/ClpP14 ratio (clpP 1-194 (Thermus thermophilus, UniProt Q5SKM8); peptidase activity, activator; apo).
For `GPIHBP1 acidic N-terminal region (Homo sapiens)`, “remaining LPL activity” read 60% (LPL (Bos taurus, UniProt P11151); lipase activity; 10 nM, 37 °C, with: peptide 1 µM; higher = less inhibition).
Under “relative stimulation of amidase activity”, `B5 (actS 27-251)` is recorded as 5 fold (amiB (Escherichia coli, UniProt P26365); amidase activity on sacculi; 2 µM, pH 5.2; baseline: stimulation by EnvC, higher = stronger stimulation).
The gliding velocity of `B6` is reported as 3.62 µm/min (microtubules tubulin polymer; TIRF motility assay; initial).
`SUMO1 fragment H89A (Arabidopsis thaliana)` — result for “SUMO conjugation rate”: 40% (SAE2/SAE1a (Arabidopsis thaliana); SUMO conjugation; 42 °C; baseline: native AtSUMO1, higher = faster conjugation).
`TFPI (Homo sapiens, UniProt P10646-1)` — result for “reversal of inhibition”: 50% (F5 B-domain deleted 811-1490 R709Q/R1545Q (UniProt P12259); prothrombinase activity; 10 nM, with: UFH; higher = more reversal).
The cell proliferation of `FGF8b (Homo sapiens)` is reported as 122% (FGFR3 isoform IIIc (unknown, UniProt Q61851); cell proliferation, MTT; BaF3-FGFR3c; 20 nM, 48 h, with: 2-O desulfated heparin 4.9 µg/mL; baseline: FGF 1 with heparin, higher = more proliferation).

Repeated from above:
For `F10 activated, mature, active site blocked (Homo sapiens)`, the EC50 was 30 nM (PROCR (Homo sapiens, UniProt Q9UNN8); cell surface binding, cell surface binding ELISA; EA.hy926; 3 h, 4 °C).
